Measurements gathered from unrelated publications.
Protocols differ between the studies behind these lines. Several values in a cell are separate wells, animals, samples, runs or records. Converted amounts (≈) assume the structure as drawn.
Organism: Staphylococcus aureus

| SMILES | test | test system | conditions | how to read | measurement | value |
| --- | --- | --- | --- | --- | --- | --- |
| CCCCCCCCCCCCCC(=O)N[C@H]1C(=O)N[C@@H](CN)C(=O)N[C@@H](CO)C(=O)N[C@@H](Cc2ccc(O)cc2)C(=O)O[C@H]1C |  | SH1000 | with: cardiolipin, molar ratio 2 |  | MIC | > 32 µg/mL |
| c1ccc(CCNC2CCCc3c2[nH]c2ccc(C4CCCCC4)cc32)cc1 (centres unmarked) | broth microdilution | SA113 ΔtarO |  |  | MIC | 4 µg/mL (≈ 10.7 µM) |
| OB(O)c1ccc(C(F)(F)F)s1 |  | USA300 wild type | 5 µM | reference: untreated | growth relative to untreated | 100% and 85.2% and 77.3% and 75.4% and 73.5% and 86.9% |
| CC(C)CCCCCCCCC/C=C/C(=O)N[C@@H](CC(=O)O)C(=O)N[C@H]1CNC(=O)[C@@H]2CCCN2C(=O)[C@H](C(C)C)NC(=O)[C@@H](CN)NC(=O)CNC(=O)[C@H](CC(=O)O)NC(=O)CNC(=O)[C@H](CC(=O)O)NC(=O)[C@H](CC(=O)O)NC(=O)[C@H]2CCCCN2C1=O | broth microdilution | VISA LIM strain 2, Mueller-Hinton broth, Mg2+ 10 mg/L | 16 h, with: Ca2+ 5 mM |  | MIC | 2 µg/mL (≈ 1.57 µM) |
| CC1C=CC=CC(C)C2C=CC3CC(C)(O)C(Cl)C(C)C3C2C(=O)C(Cl)(Cl)C(=O)C(C)C(=O)O1 (centres unmarked) |  | MSSA clinical isolate | no listed resistance |  | MIC | 0.025 µg/mL (≈ 0.047 µM) |
| CC[C@H](C)[C@@H]1NC(=O)[C@@H]([C@@H](C)O)NC(=O)CNC(=O)[C@H](CC(=O)O)NC(=O)CNC(=O)[C@H](CC(=O)O)NC(=O)CNC(=O)[C@H]2CCCCN2C(=O)[C@@H](NC(=O)[C@H](CC(=O)O)NC(=O)/C=C/CCCCCCCCCC(C)C)CNC(=O)[C@@H]2CCCN2C1=O | broth microdilution | BR-VRSA strain 880, Mueller-Hinton broth, Mg2+ 10 mg/L | 16 h, with: Ca2+ 1.0 mM |  | MIC | 4 µg/mL (≈ 3.21 µM) |
| C=C(NC(=O)c1csc(-c2nc3c(cc2O)-c2nc(cs2)C(=O)NC(C(C)O)C(=O)NC(=C(C)OC)c2nc(cs2)C(=O)NC2c4nc(cs4)C(=O)NC(COC(=O)c4c5c6c(cccc6n4O)COC(=O)C(OC4CC(C)(O)C(N(C)C)C(C)O4)C2OC5)c2nc-3cs2)n1)C(N)=O (centres unmarked) |  | MRSA strain 5, vancomycin-induced | 20 generations |  | MIC | 0.0156 µg/mL (≈ 0.0109 µM) |
| C[C@@H]1C(=O)O[C@@H](C)/C=C/C=C\[C@@H](C)[C@@H]2C=C[C@@H]3C[C@@]4(C)O[C@H]4[C@@H](C)[C@H]3[C@@H]2C(=O)C(Cl)(Cl)C1=O |  | MSSA clinical isolate, susceptible |  |  | MIC | 0.025 µg/mL (≈ 0.0505 µM) |

A few entries again:
| SMILES | test | test system | conditions | how to read | measurement | value |
| --- | --- | --- | --- | --- | --- | --- |
| C=C(NC(=O)c1csc(-c2nc3c(cc2O)-c2nc(cs2)C(=O)NC(C(C)O)C(=O)NC(=C(C)OC)c2nc(cs2)C(=O)NC2c4nc(cs4)C(=O)NC(COC(=O)c4c5c6c(cccc6n4O)COC(=O)C(OC4CC(C)(O)C(N(C)C)C(C)O4)C2OC5)c2nc-3cs2)n1)C(N)=O (centres unmarked) |  | MRSA strain 5, vancomycin-induced | 20 generations |  | MIC | 0.0156 µg/mL (≈ 0.0109 µM) |
